Experimental data gathered from unrelated publications.
Lines come from different studies, so protocols differ. Numbers after ± are the reported error.
GLP1R: Glucagon-like peptide 1 receptor (GLP1R, Homo sapiens, UniProt P43220)
HTR2C: 5-hydroxytryptamine receptor 2C (HTR2C, Homo sapiens, UniProt P28335)
Sequence of UniProt P28335 (whole entry, looked up): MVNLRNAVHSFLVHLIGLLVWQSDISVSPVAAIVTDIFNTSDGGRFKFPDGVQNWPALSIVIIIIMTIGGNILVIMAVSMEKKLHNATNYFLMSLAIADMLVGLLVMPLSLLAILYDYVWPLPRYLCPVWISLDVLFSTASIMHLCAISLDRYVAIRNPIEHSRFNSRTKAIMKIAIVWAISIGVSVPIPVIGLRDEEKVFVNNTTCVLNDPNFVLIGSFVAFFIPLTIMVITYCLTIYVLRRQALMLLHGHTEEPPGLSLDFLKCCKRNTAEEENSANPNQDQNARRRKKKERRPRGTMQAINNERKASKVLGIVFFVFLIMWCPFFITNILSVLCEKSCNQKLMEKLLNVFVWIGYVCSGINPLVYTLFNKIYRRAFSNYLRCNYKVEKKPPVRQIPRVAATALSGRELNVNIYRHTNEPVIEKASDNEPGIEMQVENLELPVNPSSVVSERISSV
Sequence of UniProt Q62645 (whole entry, looked up): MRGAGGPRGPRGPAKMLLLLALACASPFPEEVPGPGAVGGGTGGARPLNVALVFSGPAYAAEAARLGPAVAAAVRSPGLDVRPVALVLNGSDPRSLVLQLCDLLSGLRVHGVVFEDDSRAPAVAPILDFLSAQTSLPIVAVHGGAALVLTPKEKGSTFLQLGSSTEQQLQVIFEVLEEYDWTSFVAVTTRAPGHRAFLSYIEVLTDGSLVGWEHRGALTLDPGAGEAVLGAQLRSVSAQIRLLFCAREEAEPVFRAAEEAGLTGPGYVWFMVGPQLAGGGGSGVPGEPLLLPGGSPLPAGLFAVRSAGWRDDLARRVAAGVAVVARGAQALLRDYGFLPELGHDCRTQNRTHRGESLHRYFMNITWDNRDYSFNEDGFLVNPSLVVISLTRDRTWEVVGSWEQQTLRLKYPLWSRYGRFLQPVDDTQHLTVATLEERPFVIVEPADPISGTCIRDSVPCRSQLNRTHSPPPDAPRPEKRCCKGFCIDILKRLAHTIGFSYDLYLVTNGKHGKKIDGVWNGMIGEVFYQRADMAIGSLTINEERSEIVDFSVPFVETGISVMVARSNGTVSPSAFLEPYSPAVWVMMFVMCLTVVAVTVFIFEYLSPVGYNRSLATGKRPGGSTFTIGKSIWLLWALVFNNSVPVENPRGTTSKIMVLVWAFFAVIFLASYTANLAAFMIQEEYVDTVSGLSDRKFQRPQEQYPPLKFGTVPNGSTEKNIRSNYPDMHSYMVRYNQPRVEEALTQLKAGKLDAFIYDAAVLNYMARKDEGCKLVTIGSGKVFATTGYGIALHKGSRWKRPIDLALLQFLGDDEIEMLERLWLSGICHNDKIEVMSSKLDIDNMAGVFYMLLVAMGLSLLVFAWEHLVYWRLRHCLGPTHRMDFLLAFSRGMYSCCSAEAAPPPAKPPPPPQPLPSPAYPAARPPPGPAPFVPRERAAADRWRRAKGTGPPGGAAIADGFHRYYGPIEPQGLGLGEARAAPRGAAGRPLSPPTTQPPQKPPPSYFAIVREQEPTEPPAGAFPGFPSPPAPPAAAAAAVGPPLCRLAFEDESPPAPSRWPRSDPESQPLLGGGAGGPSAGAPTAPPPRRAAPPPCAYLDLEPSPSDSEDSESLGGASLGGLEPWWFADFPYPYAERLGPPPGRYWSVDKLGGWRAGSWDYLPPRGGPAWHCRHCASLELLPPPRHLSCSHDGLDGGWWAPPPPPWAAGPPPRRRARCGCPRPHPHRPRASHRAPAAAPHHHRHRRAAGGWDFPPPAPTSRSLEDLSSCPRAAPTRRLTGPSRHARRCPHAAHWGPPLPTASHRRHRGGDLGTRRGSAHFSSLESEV
Sequence of UniProt Q704Y3 (whole entry, unmodified, looked up): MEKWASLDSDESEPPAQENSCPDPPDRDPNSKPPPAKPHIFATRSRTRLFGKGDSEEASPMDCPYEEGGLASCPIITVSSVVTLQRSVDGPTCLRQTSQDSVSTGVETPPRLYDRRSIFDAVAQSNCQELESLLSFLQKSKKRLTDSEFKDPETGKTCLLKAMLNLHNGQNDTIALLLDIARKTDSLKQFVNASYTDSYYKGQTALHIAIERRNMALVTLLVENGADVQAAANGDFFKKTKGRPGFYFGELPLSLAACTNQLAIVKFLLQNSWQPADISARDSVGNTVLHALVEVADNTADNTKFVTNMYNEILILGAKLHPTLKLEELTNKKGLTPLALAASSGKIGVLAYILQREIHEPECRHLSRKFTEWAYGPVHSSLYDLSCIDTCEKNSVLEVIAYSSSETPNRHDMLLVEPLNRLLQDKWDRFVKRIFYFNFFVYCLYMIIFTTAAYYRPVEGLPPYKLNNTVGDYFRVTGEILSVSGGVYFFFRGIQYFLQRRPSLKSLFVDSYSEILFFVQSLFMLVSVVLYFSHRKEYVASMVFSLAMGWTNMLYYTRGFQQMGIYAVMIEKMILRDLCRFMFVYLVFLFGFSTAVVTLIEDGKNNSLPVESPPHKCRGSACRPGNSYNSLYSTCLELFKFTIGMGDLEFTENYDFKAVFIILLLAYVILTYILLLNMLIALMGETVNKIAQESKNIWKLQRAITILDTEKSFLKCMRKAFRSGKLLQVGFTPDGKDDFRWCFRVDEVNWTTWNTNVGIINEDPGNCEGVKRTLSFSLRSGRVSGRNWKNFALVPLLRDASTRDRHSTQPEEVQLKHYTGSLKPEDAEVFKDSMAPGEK
Sequence of UniProt P04629 (whole entry, looked up): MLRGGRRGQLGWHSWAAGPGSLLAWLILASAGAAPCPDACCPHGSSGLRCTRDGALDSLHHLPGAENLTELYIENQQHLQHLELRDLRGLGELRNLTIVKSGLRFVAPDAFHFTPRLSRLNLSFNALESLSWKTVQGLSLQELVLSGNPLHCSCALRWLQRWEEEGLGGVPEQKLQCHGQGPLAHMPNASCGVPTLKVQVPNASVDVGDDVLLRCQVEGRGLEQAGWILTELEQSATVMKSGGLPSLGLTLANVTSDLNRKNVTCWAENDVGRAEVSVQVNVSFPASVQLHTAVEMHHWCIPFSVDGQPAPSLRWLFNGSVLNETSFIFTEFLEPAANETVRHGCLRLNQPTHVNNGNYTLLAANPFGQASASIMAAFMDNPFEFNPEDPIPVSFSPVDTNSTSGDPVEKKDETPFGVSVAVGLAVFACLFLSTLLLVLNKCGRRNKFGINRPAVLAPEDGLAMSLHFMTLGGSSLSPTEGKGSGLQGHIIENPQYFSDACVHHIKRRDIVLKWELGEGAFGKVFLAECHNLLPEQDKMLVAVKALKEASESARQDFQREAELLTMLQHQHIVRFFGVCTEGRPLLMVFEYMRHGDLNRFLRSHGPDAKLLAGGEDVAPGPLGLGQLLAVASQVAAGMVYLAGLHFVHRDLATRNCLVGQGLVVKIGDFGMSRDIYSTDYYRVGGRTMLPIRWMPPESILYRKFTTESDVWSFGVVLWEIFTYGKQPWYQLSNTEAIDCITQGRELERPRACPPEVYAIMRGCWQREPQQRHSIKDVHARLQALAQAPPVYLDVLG

SMILES | target | assay | system | setting | how to read | quantity | result
CC[C@H](C)[C@H](NC(=O)[C@H](Cc1ccccc1)NC(=O)[C@H](CCC(=O)O)NC(=O)[C@H](CCCNC(=N)N)NC(=O)[C@H](C)NC(=O)[C@H](C)NC(=O)[C@H](CCC(N)=O)NC(=O)[C@H](CCC(=O)O)NC(=O)[C@H](CCC(=O)O)NC(=O)[C@H](CC(C)C)NC(=O)[C@H](Cc1ccc(O)cc1)NC(=O)[C@H](CO)NC(=O)[C@H](CO)NC(=O)[C@@H](NC(=O)[C@H](CC(=O)O)NC(=O)[C@H](CO)NC(=O)[C@@H](NC(=O)[C@H](Cc1ccccc1)NC(=O)[C@@H](NC(=O)CNC(=O)[C@H](CCC(=O)O)NC(=O)[C@H](C)NC(=O)CCc1cnc[nH]1)[C@@H](C)O)[C@@H](C)O)C(C)C)C(=O)N[C@@H](C)C(=O)N[C@@H](Cc1c[nH]c2ccccc12)C(=O)N[C@@H](CC(C)C)C(=O)N[C@H](C(=O)N[C@@H](CCCNC(=N)N)C(=O)NCC(=O)N[C@@H](CCCNC(=N)N)C(=O)N[C@@H](CCCCNC(=O)COCCOCCNC(=O)COCCOCCNC(=O)CC[C@H](NC(=O)CCCCCCCCCCCCCCCCC(=O)O)C(=O)O)C(=O)NCC(=O)NCC(=O)N[C@@H](CO)C(=O)N[C@@H](CCCCNc1c(NCCCCCN(O)C(=O)CCC(=O)NCCCCCN(O)C(=O)CCC(=O)NCCCCCN(O)C(C)=O)c(=O)c1=O)C(=O)N[C@@H](CCCCNc1c(NCCCCCN(O)C(=O)CCC(=O)NCCCCCN(O)C(=O)CCC(=O)NCCCCCN(O)C(C)=O)c(=O)c1=O)C(=O)O)C(C)C | GLP1R | cAMP reporter gene, agonist, CRE luciferase | BHK | with Zr, 1% HSA |  | EC50 | 0.11 nM
CC(C)=CCc1c(O)cc2oc3cc(O)c(O)c(CC=C(C)C)c3c(=O)c2c1O | Cyclin-dependent kinase 2, with cyclin E1 (CDK2, Homo sapiens, UniProt P24941) | kinase activity, inhibitor |  |  |  | EC50 | 14200 nM
CC[C@H](C)[C@H](NC(=O)[C@H](Cc1ccccc1)NC(=O)[C@H](CCC(=O)O)NC(=O)[C@H](CCCNC(=N)N)NC(=O)[C@H](C)NC(=O)[C@H](C)NC(=O)[C@H](CCC(N)=O)NC(=O)[C@H](CCC(=O)O)NC(=O)[C@H](CCC(=O)O)NC(=O)[C@H](CC(C)C)NC(=O)[C@H](Cc1ccc(O)cc1)NC(=O)[C@H](CO)NC(=O)[C@H](CO)NC(=O)[C@@H](NC(=O)[C@H](CC(=O)O)NC(=O)[C@H](CO)NC(=O)[C@@H](NC(=O)[C@H](Cc1ccccc1)NC(=O)[C@@H](NC(=O)CNC(=O)[C@H](CCC(=O)O)NC(=O)[C@H](C)NC(=O)CCc1cnc[nH]1)[C@@H](C)O)[C@@H](C)O)C(C)C)C(=O)N[C@@H](C)C(=O)N[C@@H](Cc1c[nH]c2ccccc12)C(=O)N[C@@H](CC(C)C)C(=O)N[C@H](C(=O)N[C@@H](CCCCNc1c(NCCCCCN(O)C(=O)CCC(=O)NCCCCCN(O)C(=O)CCC(=O)NCCCCCN(O)C(C)=O)c(=O)c1=O)C(=O)NCC(=O)N[C@@H](CCCNC(=N)N)C(=O)N[C@@H](CCCCNC(=O)COCCOCCNC(=O)COCCOCCNC(=O)CC[C@H](NC(=O)CCCCCCCCCCCCCCCCC(=O)O)C(=O)O)C(=O)NCC(=O)NCC(=O)N[C@@H](CO)C(=O)N[C@@H](CCCCNc1c(NCCCCCN(O)C(=O)CCC(=O)NCCCCCN(O)C(=O)CCC(=O)NCCCCCN(O)C(C)=O)c(=O)c1=O)C(=O)O)C(C)C | GLP1R | cAMP reporter gene, agonist, CRE luciferase | BHK | with Zr, 1% HSA |  | EC50 | 0.16 nM
COc1cc(C(=O)N2CC[C@@H](O)[C@@H](N)C2)cc2nc(-c3cc4ccccc4n3CC3CC3)n(C)c12 | HTR2C | intracellular calcium, agonist, luminescence |  |  |  | EC50 | > 39800 nM
CCCCC/C=C\C/C=C\C/C=C\C/C=C\CCCC(=O)NCCO | Trpv1 (Mus musculus, UniProt Q704Y3, S513A) | ion current, agonist, whole-cell patch clamp |  | 24 °C, +80 mV |  | EC50 | 4620 ± 1190 nM
C[C@H]1CN(c2n[nH]c3nc(N[C@H]4CC[C@H](NS(=O)(=O)CCC(F)(F)F)CC4)ncc23)CCO1 | NTRK1 (Homo sapiens, UniProt P04629) | inhibitor, Kinobeads competition profiling |  | 20 µM | baseline: vehicle | relative abundance | 1.14
C[C@H](N)Cn1ncc2ccc3c(c21)CCCO3 | HTR2C | agonist, aequorin |  |  | may be range | EC50 | 0.3 ± 0.15 nM
C#Cc1sc2ncn(CC(=O)N3CC(C)(F)C3)c(=O)c2c1-c1ccc(F)c(Br)c1 | Grin1/Grin2b/Glutamate receptor ionotropic, NMDA 2D (Rattus norvegicus, UniProt P35439+Q00960+Q62645) | ion current, potentiator, two-electrode voltage clamp | Xenopus oocytes |  |  | EC50 | 660 ± 150 nM
CC[C@H](C)[C@H](NC(=O)[C@H](Cc1ccccc1)NC(=O)[C@H](CCC(=O)O)NC(=O)[C@H](CCCNC(=N)N)NC(=O)[C@H](C)NC(=O)[C@H](C)NC(=O)[C@H](CCC(N)=O)NC(=O)[C@H](CCC(=O)O)NC(=O)[C@H](CCC(=O)O)NC(=O)[C@H](CC(C)C)NC(=O)[C@H](Cc1ccc(O)cc1)NC(=O)[C@H](CO)NC(=O)[C@H](CO)NC(=O)[C@@H](NC(=O)[C@H](CC(=O)O)NC(=O)[C@H](CO)NC(=O)[C@@H](NC(=O)[C@H](Cc1ccccc1)NC(=O)[C@@H](NC(=O)CNC(=O)[C@H](CCC(=O)O)NC(=O)[C@H](C)NC(=O)CCc1cnc[nH]1)[C@@H](C)O)[C@@H](C)O)C(C)C)C(=O)N[C@@H](C)C(=O)N[C@@H](Cc1c[nH]c2ccccc12)C(=O)N[C@@H](CC(C)C)C(=O)N[C@H](C(=O)N[C@@H](CCCCNC(=O)COCCOCCNC(=O)COCCOCCNC(=O)CC[C@H](NC(=O)CCCCCCCCCCCCCCCCC(=O)O)C(=O)O)C(=O)NCC(=O)N[C@@H](CCCNC(=N)N)C(=O)N[C@@H](CCCCNc1c(NCCCCCN(O)C(=O)CCC(=O)NCCCCCN(O)C(=O)CCC(=O)NCCCCCN(O)C(C)=O)c(=O)c1=O)C(=O)NCC(=O)NCC(=O)N[C@@H](CO)C(=O)N[C@@H](CCCCNc1c(NCCCCCN(O)C(=O)CCC(=O)NCCCCCN(O)C(=O)CCC(=O)NCCCCCN(O)C(C)=O)c(=O)c1=O)C(=O)O)C(C)C | GLP1R | cAMP reporter gene, agonist, CRE luciferase | BHK | without Zr, 0% HSA |  | EC50 | 0.0074 nM
CC[C@H](C)[C@H](NC(=O)[C@H](Cc1ccccc1)NC(=O)[C@H](CC(=O)O)NC(=O)[C@H](CCCNC(=N)N)NC(=O)[C@@H](NC(=O)[C@H](C)NC(=O)[C@H](CC(C)C)NC(=O)[C@H](CC(N)=O)NC(=O)[C@H](CC(=O)O)NC(=O)[C@H](CC(C)C)NC(=O)[C@@H](NC(=O)[C@@H](NC(=O)[C@H](CO)NC(=O)[C@H](CCSC)NC(=O)[C@H](CCC(=O)O)NC(=O)[C@H](CC(=O)O)NC(=O)[C@H](CO)NC(=O)[C@H](Cc1ccccc1)NC(=O)[C@H](CO)NC(=O)CNC(=O)[C@H](CC(=O)O)NC(=O)[C@H](C)NC(=O)[C@@H](N)Cc1c[nH]cn1)[C@@H](C)O)[C@@H](C)CC)[C@@H](C)O)C(=O)N[C@@H](CC(N)=O)C(=O)N[C@@H](Cc1c[nH]c2ccccc12)C(=O)N[C@@H](CC(C)C)C(=O)N[C@H](C(=O)N[C@@H](CCC(N)=O)C(=O)N[C@H](C(=O)N[C@@H](CCCCN)C(=O)N[C@H](C(=O)N[C@H](C(=O)N[C@@H](CC(=O)O)C(=O)O)[C@@H](C)O)[C@@H](C)CC)[C@@H](C)O)[C@@H](C)CC | GLP1R | reporter gene, agonist, CRE-luciferase reporter | HEK-293T | 12 h |  | EC50 | 19.7 nM
